Results pooled from the literature.
Each line is one published result; not all experiments were run side by side. Values joined by “and” are separate records of one study, mostly repeats; a detail may differ. ± marks the error that the study gave.
ESR1: Estrogen receptor (ESR1, Homo sapiens, UniProt P03372)
Grm2: Metabotropic glutamate receptor 2 (Grm2, Rattus norvegicus, UniProt P31421)
CHEK1: Serine/threonine-protein kinase Chk1 (CHEK1, Homo sapiens, UniProt O14757)
IDO1: Indoleamine 2,3-dioxygenase 1 (IDO1, Homo sapiens, UniProt P14902)
LATS2: Serine/threonine-protein kinase LATS2 (LATS2, Homo sapiens, UniProt Q9NRM7)
APP amyloid-beta peptide: Amyloid-beta precursor protein, amyloid-beta peptide (APP, Homo sapiens, UniProt P05067)

Chains of the proteins cited; added tags and fusions are not shown. Residues count along the entry.
UniProt P03372, whole entry: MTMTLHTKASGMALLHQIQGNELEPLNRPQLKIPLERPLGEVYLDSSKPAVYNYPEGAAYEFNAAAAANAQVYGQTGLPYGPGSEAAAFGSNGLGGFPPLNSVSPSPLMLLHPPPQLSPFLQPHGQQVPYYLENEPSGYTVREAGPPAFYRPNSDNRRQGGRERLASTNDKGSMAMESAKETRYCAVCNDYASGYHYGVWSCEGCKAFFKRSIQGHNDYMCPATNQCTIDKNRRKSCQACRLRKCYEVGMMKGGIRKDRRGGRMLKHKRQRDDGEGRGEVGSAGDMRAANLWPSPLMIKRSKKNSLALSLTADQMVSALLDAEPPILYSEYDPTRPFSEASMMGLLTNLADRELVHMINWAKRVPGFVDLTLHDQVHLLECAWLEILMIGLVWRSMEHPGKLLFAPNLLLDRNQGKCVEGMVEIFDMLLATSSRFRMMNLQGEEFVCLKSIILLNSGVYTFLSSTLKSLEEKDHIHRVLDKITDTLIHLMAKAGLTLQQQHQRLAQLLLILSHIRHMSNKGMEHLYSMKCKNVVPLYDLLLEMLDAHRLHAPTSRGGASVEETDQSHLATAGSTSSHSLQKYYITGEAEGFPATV
UniProt P31421, 19-872 limits assumed: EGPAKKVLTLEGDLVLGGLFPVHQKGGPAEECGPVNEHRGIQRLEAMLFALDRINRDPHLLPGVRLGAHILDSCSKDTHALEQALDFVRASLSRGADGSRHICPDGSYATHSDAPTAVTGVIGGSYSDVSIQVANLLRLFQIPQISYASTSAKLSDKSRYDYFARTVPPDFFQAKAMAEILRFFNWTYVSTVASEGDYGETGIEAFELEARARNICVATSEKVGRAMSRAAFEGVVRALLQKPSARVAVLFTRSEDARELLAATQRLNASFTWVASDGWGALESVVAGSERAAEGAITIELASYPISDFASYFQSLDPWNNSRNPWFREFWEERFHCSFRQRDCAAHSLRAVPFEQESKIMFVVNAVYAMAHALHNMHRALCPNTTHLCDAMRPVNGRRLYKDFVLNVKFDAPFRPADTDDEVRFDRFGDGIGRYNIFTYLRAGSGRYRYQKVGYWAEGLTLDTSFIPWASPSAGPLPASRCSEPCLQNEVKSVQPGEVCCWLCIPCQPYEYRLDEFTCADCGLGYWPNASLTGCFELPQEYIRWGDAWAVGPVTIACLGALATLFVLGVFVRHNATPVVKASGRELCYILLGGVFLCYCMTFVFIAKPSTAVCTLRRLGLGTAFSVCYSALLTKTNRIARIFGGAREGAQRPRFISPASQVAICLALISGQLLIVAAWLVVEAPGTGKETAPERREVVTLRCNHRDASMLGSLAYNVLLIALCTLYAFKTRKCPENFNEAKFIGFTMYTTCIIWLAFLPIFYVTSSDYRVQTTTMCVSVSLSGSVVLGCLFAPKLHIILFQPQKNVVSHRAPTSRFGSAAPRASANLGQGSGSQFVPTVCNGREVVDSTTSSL
UniProt Q9NRM7, whole entry: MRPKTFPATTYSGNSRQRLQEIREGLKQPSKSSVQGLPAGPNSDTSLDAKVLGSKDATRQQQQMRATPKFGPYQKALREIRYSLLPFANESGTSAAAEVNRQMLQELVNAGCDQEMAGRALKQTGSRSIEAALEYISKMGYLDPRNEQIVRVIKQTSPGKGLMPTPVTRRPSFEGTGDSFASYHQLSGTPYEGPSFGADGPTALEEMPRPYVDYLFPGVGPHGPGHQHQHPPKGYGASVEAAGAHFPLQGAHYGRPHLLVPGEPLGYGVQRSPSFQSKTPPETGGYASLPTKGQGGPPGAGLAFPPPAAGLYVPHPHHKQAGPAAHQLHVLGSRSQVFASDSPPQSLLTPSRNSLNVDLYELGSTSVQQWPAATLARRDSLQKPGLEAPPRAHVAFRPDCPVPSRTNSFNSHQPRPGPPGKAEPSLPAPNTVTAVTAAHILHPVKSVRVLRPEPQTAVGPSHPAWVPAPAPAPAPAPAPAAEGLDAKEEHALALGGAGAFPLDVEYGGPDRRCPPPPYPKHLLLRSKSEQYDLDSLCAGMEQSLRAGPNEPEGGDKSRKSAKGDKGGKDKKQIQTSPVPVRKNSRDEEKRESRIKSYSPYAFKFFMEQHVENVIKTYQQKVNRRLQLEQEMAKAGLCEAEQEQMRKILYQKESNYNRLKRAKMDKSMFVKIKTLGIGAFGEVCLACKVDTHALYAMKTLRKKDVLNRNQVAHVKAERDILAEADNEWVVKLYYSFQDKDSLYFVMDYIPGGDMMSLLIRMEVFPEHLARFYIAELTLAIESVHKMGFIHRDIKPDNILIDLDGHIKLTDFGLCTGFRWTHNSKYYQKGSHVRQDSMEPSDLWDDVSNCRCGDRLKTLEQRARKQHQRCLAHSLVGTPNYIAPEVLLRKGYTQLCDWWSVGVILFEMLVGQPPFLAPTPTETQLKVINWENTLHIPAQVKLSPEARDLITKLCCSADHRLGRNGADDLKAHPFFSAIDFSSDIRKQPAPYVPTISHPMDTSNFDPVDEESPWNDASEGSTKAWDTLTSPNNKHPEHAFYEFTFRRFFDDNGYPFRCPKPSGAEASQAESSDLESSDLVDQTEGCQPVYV
UniProt P05067, whole entry, looked up: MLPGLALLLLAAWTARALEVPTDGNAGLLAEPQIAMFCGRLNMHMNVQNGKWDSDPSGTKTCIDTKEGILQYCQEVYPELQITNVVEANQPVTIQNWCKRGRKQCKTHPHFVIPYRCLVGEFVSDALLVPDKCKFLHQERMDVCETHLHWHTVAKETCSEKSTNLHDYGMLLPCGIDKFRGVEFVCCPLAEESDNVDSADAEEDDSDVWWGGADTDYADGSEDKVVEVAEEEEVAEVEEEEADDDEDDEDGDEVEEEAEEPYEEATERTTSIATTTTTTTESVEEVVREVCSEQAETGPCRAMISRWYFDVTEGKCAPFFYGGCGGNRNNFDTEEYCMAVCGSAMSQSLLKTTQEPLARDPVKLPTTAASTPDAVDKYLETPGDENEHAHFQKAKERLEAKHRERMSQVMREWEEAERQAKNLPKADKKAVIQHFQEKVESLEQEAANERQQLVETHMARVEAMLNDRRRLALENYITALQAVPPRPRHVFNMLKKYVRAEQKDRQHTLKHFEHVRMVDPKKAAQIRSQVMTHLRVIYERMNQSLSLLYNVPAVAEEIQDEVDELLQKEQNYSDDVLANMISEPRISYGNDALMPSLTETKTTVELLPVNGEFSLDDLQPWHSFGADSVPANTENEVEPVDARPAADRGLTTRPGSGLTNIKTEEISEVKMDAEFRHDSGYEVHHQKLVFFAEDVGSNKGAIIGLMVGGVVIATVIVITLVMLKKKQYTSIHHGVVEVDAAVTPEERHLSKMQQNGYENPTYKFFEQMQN
UniProt P05067, 672-713 limits assumed: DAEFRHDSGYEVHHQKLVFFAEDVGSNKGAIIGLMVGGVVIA
UniProt P40306, whole entry, looked up: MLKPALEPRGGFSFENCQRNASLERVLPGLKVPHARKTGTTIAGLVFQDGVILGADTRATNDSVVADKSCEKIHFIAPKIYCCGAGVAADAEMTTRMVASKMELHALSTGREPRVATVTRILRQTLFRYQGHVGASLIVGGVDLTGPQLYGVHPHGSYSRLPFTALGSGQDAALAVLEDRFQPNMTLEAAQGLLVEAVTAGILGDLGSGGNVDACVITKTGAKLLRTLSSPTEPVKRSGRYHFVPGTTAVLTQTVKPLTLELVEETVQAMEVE
UniProt P28300, whole entry, looked up: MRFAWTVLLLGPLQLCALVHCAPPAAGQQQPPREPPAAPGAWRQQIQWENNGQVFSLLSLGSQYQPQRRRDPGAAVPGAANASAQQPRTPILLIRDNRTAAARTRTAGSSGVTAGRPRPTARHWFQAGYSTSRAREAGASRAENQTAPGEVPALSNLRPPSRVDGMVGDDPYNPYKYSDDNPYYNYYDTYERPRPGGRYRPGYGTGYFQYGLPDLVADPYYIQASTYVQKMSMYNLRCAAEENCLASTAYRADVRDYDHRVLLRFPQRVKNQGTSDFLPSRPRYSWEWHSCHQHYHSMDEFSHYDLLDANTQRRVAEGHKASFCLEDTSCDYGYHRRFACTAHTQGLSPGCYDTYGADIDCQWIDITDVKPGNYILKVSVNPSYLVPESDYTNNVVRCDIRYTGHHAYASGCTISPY
UniProt Q8N884, whole entry: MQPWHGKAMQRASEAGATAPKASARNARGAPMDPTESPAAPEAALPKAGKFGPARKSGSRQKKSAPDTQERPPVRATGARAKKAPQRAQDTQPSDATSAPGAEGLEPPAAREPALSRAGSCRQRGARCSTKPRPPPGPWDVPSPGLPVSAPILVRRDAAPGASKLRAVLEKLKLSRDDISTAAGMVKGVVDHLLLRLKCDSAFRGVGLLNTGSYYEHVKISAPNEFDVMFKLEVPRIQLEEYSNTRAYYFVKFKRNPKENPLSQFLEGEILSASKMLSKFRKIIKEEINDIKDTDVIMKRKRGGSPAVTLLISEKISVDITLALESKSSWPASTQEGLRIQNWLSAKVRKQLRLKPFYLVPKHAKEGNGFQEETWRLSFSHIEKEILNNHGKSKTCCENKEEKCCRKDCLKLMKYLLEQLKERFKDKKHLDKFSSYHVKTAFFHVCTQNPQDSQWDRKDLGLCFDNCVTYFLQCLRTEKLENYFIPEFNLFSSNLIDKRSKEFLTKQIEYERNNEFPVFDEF
UniProt P55072, whole entry: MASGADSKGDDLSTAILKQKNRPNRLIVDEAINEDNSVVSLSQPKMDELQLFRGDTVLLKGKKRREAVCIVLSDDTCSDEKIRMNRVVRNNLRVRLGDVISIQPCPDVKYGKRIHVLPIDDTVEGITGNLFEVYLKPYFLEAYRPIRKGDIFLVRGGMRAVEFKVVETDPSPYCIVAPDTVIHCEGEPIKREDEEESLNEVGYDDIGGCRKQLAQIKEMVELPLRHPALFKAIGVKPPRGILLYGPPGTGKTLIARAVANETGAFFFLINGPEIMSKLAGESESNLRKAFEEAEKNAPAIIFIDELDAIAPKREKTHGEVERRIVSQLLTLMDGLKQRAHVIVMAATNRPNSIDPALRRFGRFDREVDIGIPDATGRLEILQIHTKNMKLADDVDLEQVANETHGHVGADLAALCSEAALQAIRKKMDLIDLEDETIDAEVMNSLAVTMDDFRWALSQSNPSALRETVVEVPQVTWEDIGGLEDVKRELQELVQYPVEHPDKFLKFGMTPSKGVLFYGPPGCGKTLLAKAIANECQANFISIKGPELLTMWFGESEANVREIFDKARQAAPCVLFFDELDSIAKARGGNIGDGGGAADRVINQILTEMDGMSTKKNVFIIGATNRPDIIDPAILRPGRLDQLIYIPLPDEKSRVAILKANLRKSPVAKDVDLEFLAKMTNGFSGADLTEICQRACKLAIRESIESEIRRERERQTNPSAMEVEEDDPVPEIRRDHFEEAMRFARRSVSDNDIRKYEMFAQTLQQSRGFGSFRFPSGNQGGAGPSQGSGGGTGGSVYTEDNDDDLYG
UniProt P31424, 21-1203 limits assumed: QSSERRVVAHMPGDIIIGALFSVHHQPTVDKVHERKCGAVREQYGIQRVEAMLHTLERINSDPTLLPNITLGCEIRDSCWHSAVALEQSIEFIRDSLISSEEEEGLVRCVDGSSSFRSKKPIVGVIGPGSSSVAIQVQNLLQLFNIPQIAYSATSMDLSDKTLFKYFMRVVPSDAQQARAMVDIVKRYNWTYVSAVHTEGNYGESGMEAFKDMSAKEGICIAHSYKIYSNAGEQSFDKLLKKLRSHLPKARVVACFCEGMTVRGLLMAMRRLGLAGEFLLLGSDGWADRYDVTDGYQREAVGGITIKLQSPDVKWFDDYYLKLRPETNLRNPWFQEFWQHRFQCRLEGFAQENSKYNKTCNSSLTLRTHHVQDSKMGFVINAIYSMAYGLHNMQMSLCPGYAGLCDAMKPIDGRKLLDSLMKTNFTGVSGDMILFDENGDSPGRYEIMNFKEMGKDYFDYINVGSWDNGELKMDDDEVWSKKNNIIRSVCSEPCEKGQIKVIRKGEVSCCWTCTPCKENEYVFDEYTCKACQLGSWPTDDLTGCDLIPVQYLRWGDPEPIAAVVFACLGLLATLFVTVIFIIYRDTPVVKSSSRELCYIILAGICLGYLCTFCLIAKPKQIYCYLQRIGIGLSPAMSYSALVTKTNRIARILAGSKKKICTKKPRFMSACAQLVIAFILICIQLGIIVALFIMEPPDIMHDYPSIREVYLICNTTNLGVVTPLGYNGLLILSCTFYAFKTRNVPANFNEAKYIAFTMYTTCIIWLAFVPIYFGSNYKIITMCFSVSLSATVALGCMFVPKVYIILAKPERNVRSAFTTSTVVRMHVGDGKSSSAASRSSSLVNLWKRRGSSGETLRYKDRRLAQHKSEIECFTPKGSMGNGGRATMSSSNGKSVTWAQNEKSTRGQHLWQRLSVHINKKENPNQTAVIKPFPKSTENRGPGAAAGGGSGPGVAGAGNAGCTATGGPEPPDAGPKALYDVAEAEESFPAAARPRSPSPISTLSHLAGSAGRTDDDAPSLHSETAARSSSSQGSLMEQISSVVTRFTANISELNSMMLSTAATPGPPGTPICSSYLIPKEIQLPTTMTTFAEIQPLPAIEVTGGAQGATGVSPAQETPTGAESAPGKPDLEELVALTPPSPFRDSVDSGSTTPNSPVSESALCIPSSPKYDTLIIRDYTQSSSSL

| Structure (SMILES) | target | assay | system | setting | IC50 |
| --- | --- | --- | --- | --- | --- |
| CN1CCC[C@@H]1C(=O)N[C@@H](Cc1ccccc1)B(O)O | Proteasome subunit beta type-10 / Proteasome subunit beta type-3 (Homo sapiens, UniProt P40306+P49720) | β2i enzyme activity, inhibitor |  | together with: Ac-KQL-AMC | > 10000 nM |
| COc1cc([C@@H]2c3cc4c(cc3[C@@H](OC3CCCCC3)[C@H]3COC(=O)[C@H]23)OCO4)cc(OC)c1OC | Tubulin alpha/beta heterodimer (Leishmania infantum, UniProt A0A381MCS3+A4HTR0) | tubulin polymerization, inhibitor |  | 37 °C, together with: tubulin 1.2 mg/mL | 3400 ± 500 nM |
| CC(C)CNC(=O)CSc1nc2ccc(NC(=O)CSc3ccccc3C(C)(C)C)cc2s1 | ESR1 | reporter gene, antagonist | HEC-1 transfected ERα luciferase reporter |  | 5800 nM |
| COc1nc(-c2ccccc2)n(-c2ccc(C#N)cc2)n1 | PTGS1 (Homo sapiens, UniProt P23219) | thromboxane B2 production, inhibitor, enzyme immunoassay | human whole blood |  | 1 ± 1.4 nM |
| NS(=O)(=O)c1ccc(Cc2c(-c3ccc(F)c(C4CCCCC4)c3)nn(-c3nc(C(=O)O)cs3)c2CC2CC2)cc1F | LDHA (Homo sapiens, UniProt P00338) | enzyme activity, inhibitor |  |  | 40 ± 10 nM |
| Cc1nc(N)sc1-c1csc(Nc2ccc(S(N)(=O)=O)cc2)n1 | Protein-lysine 6-oxidase (Homo sapiens, UniProt P28300) | LOX activity, inhibitor | MDA-MB-231 |  | 3500 nM |
| CC(C)CNC(=O)CSc1nc2ccc(NC(=O)CSc3ccc(C(F)(F)F)cc3)cc2s1 | ESR1 | reporter gene, antagonist | HEC-1 transfected ERα luciferase reporter |  | 17000 nM |
| CC(C)[C@H](N)c1nc2cc(-c3ccncn3)sc2c(=O)[nH]1 | CDC7 (Homo sapiens, UniProt O00311) | enzyme activity, inhibitor |  |  | 495 ± 29.7 nM |
| NC(=O)c1cn(-c2ccc(F)cc2)c2ccc(CN3CCCCCC3)cc2c1=O | Grm2 | calcium mobilization, negative allosteric modulator |  |  | 2080 nM |
| O=C(Nc1ccc(-c2nc3ccc(NC(=O)N4CCOCC4)cc3s2)cc1)N1CCOCC1 | Tyrosine-protein kinase SYK, with FCER1G (SYK, Homo sapiens, UniProt P43405) | protein binding, inhibitor, TR-FRET |  |  | > 100000 nM |
| O=C(O)c1cc(C(=O)N2CCC[C@H]2C(=O)O)cc([C@H]2CCN[C@@H]2C(=O)O)c1 | AMPA receptor (rat) | binding, radioligand binding | rat cortical synaptosomes | together with: [3H]AMPA | 10000 to 50000 nM |
| CCOc1ccccc1Nc1nnc(SCC(=O)Nc2cc(F)ccc2F)s1 | CD28, with CD86 (Homo sapiens, UniProt P10747) | protein interaction, NanoBiT complementation | CHO-K1 | 2 h | 38700 nM |
| CCOc1ccc(S(=O)(=O)NC(=O)Cc2ccc(Br)cc2)cc1Br | CGAS (Homo sapiens, UniProt Q8N884) | enzyme activity, inhibitor, Kinase-Glo ATP depletion |  | 25 °C, 100 nM enzyme | 4420 nM |
| NC(N)=NN=C1CCCc2cc(NC(=O)c3cc4cccc([N+](=O)[O-])c4[nH]3)ccc21 | CHEK1 | kinase activity, inhibitor, IMAP fluorescence polarization |  |  | 36000 nM |
| CC(F)(F)c1nc2nc(CO)cc(Nc3ccc(C(F)(F)F)nc3)n2n1 | PFF0160c (Plasmodium falciparum, UniProt Q08210) | enzyme activity, inhibitor, DCIP reduction |  |  | 88 nM |
| O=C(OC(C(F)(F)F)C(F)(F)F)N1CCc2cccc(Br)c2C1 | ABHD6 (Homo sapiens, UniProt Q9BV23) | inhibitor, fluorescence |  |  | 58 ± 3.5 nM |
| O=C(Nc1ccc(-c2nc3ccccc3s2)cc1)C1CCCCC1 | Moesin, with CD44 (Homo sapiens, UniProt P26038) | MSN-CD44 interaction, inhibitor, TR-FRET |  | together with: CD44 | > 100000 nM |
| CC(C)N1CCN(CCNC2CCN(c3cccc(-c4cc5cc([N+](=O)[O-])ccc5[nH]4)c3)CC2)CC1 | VCP (Homo sapiens, UniProt P55072) | ATPase activity, inhibitor, ADP-Glo |  | together with: ATP 100 µM | 47 nM |
| CN1CCN(Cc2ccc(NC(=O)c3cncc(C#Cc4c(N)ncc5ccc(F)cc45)c3)cc2C(F)(F)F)CC1 | Kinesin-1 heavy chain/ Tyrosine-protein kinase receptor RET (RET/KIF5B, Homo sapiens, UniProt P07949+P33176, G810C) | cell viability, inhibitor, CellTiter-Glo | Ba/F3 KIF5B-RET G810C |  | 17.8 ± 0.51 nM |
| Cc1ccc(OCc2ccc3c(c2)c(=O)c(C(N)=O)cn3-c2ccc(F)cc2)cn1 | Grm2 | calcium mobilization, negative allosteric modulator |  |  | 247 nM |
| CS(=O)(=O)Oc1cccc(/C=C/c2c[nH]c3ccc(F)cc23)c1 | IDO1 | enzyme activity, inhibitor |  |  | > 50000 nM |
| O=C(NCc1ccc(-c2cnco2)cc1)[C@@H]1C[C@@H](O)CN1C(=O)c1cccc(Br)c1 | von Hippel-Lindau disease tumor suppressor, with elongin B, C (VHL, Homo sapiens, UniProt P40337) | binding, fluorescence polarization |  | 1% DMSO, together with: FAM-HIF1α peptide tracer | 31500 ± 1900 nM |

| Structure (SMILES) | target | assay | system | setting | IC50 |
| --- | --- | --- | --- | --- | --- |
| CN1CC[C@H](c2c(O)cc(O)c3c(=O)cc(-c4ccccc4F)oc23)[C@H](O)C1 | SGK1 (Homo sapiens, UniProt O00141, S422D) |  |  | ATP at Km | > 10000 nM |
| Nc1nccc(-c2ccc(C3(c4ccc(Cl)cc4)CCNCC3)cc2)n1 | LATS2 | kinase activity, inhibitor, radiometric HotSpot |  | together with: ATP 10 µM | 23 nM |
| CN1CCc2cc(Nc3cnn(C)c(=O)c3Cl)ccc2C1 | Nucleosome-remodeling factor subunit BPTF, bromodomain (BPTF, Homo sapiens, UniProt Q12830) | target engagement, inhibitor, NanoBRET displacement | HEK293T |  | 900 ± 200 nM |
| Cc1ccc(N=Nc2c(O)c(S(=O)(=O)O)cc3cc(S(=O)(=O)O)ccc23)c(C)c1 | Bcl-2-related protein A1 (Mus musculus, UniProt Q07440, C113S/P104K) | binding, fluorescence polarization |  | together with: FITC-Noxa peptide | > 400000 nM |
| Cc1ccc(S(=O)(=O)Oc2ccc(/C=C/c3c[nH]c4ccc(C#N)cc34)cc2)cc1 | APP amyloid-beta peptide | Aβ42 oligomerisation, ELISA |  |  | 6500 nM |
| COc1cc([N+](=O)[O-])ccc1NC(=O)Nc1cnc(C#N)cn1 | CHEK1 | enzyme activity, inhibitor |  | together with: CDC25C substrate | > 10000 nM |
| COc1ccc2[nH]cc(/C=C/c3ccc(OS(=O)(=O)c4ccc(C)cc4)cc3)c2c1 | APP amyloid-beta peptide | Aβ42 oligomerisation, ELISA |  |  | 3400 nM |
| Cc1cc(-c2ccc(C3(c4ccc(Cl)cc4)CCNCC3)cc2)ccn1 | LATS2 | kinase activity, inhibitor, radiometric HotSpot |  | together with: ATP 10 µM | 3860 nM |
| COc1ccc2nc3ccccc3c(SCCCN3C(=O)c4ccccc4C3=O)c2c1 | DYRK2 (Homo sapiens, UniProt Q92630) | inhibitor |  | together with: Woodtide peptide | 1300 nM |
| N#Cc1cnc(Nc2nc3ccccc3o2)nc1-c1cc(Cl)cc(Cl)c1 | Grm5 (Rattus norvegicus, UniProt P31424) | calcium mobilization, negative allosteric modulator |  | together with: glutamate EC80 | > 30000 nM |
| CCOC(=O)c1nc2cc(Cl)c(Cl)cc2nc1N1CCN(C(=O)CC)CC1 | PGK1 (Homo sapiens, UniProt P00558) | enzyme activity, inhibitor, GAPDH-coupled |  | together with: ATP 1.5 mM, 3-phosphoglycerate 2 mM | 680 ± 140 nM |
| C=CCN(CC=C)C(=O)Oc1ccccc1C=C1Cc2cc(OC)c(OC)cc2C1=O | Cocaine esterase (CES2, Homo sapiens, UniProt O00748) | inhibitor |  | 3 min preincubation, together with: fluorescein diacetate | 350 ± 25.4 nM |
| O=C(O)CC[C@H](NC(=O)c1cc(C(=O)O)cc([C@H]2CCN[C@@H]2C(=O)O)c1)C(=O)O | Glutamate receptor ionotropic, NMDA 2C, with GluN1 (Rattus norvegicus, UniProt Q00961) | ion current, antagonist, two-electrode voltage clamp | Xenopus oocytes | GluN1/GluN2C, together with: glycine 100 µM and glutamate 1 µM | 2610 ± 70 nM |
| C1=C(CCNCc2ccccc2)CCCC1 | Phenylalanine--tRNA ligase alpha subunit (Homo sapiens, UniProt Q9Y285) | phenylalanine activation, inhibitor |  | human enzyme | > 300 µg/mL |
| O=c1[nH]c(=O)c2cc(-c3ccccc3)sc2[nH]1 | PTP4A3 (Homo sapiens, UniProt O75365) | phosphatase activity |  | 30 min, pH 7.0, 25 °C, together with: DiFMUP 12 µM | > 240000 nM |
| COc1cccc(OC)c1-c1cc(C(=O)NC2(C(=O)O)C3CC4CC(C3)CC2C4)nn1-c1ccc(C(=O)N(C)CCCN(C)CCCN(C)C(=O)CN2CCN(CC(=O)O)CCN(CC(=O)O)CCN(CC(=O)O)CC2)cc1C(C)C (centres unmarked) | NTSR1 (Homo sapiens, UniProt P30989) | binding, competitive radioligand binding | HT-29 | 40 min, 37 °C, together with: [177Lu]Lu-compound radioligand | 9.6 nM and 8.3 nM |
| COc1ccc(SCC(=O)Nc2ccc3nc(SCC(=O)NC(C)C)sc3c2)cc1 | ESR1 | reporter gene, antagonist | HEC-1 transfected ERα luciferase reporter |  | > 50000 nM |
| CC(C)n1nnc(-c2ccc(F)c(Nc3ncnn4ccc(CN5CCC(N)CC5)c34)c2)n1 | AAK1 (Homo sapiens, UniProt Q2M2I8) |  |  |  | 830 nM |
| CC1(C)C(=S)Nc2ccccc21 | MMP2 (Homo sapiens, UniProt P08253) | inhibitor |  |  | > 200000 nM |
| COc1ccc2[nH]cc(/C=C/c3cccc(O)c3)c2c1 | IDO1 | enzyme activity, inhibitor |  |  | 6800 nM |
| COC(=O)CCCC(C(=O)/C=C/c1ccc(O)c(OC(F)(F)F)c1)C(=O)/C=C/c1ccc(O)c(OC(F)(F)F)c1 | Amyloid-beta precursor protein, Aβ aggregates (APP, Homo sapiens, UniProt P05067) | binding, thioflavin T competition |  |  | 350 nM |
| CC1CCN(Cc2cc(Cl)c3cccnc3c2O)CC1 | KCNJ13 (Homo sapiens, UniProt O60928, M125R) | potassium current, inhibitor, whole-cell patch clamp |  | holding potential -120 mV | 1400 nM |

Some of these lines once more:
| Structure (SMILES) | target | assay | system | setting | IC50 |
| --- | --- | --- | --- | --- | --- |
| CC(C)n1nnc(-c2ccc(F)c(Nc3ncnn4ccc(CN5CCC(N)CC5)c34)c2)n1 | AAK1 (Homo sapiens, UniProt Q2M2I8) |  |  |  | 830 nM |
| CC1(C)C(=S)Nc2ccccc21 | MMP2 (Homo sapiens, UniProt P08253) | inhibitor |  |  | > 200000 nM |
| COc1ccc2[nH]cc(/C=C/c3cccc(O)c3)c2c1 | IDO1 | enzyme activity, inhibitor |  |  | 6800 nM |
| COC(=O)CCCC(C(=O)/C=C/c1ccc(O)c(OC(F)(F)F)c1)C(=O)/C=C/c1ccc(O)c(OC(F)(F)F)c1 | Amyloid-beta precursor protein, Aβ aggregates (APP, Homo sapiens, UniProt P05067) | binding, thioflavin T competition |  |  | 350 nM |
| CC1CCN(Cc2cc(Cl)c3cccnc3c2O)CC1 | KCNJ13 (Homo sapiens, UniProt O60928, M125R) | potassium current, inhibitor, whole-cell patch clamp |  | holding potential -120 mV | 1400 nM |
